Published values of several laboratories.
Lines come from different studies, so protocols differ. ≈ marks a conversion by molar mass, not a printed value.

SMILES | medium | time | pH | temperature | quantity | value
Cn1c(C(C)(C)C)c/c(=N\C(=O)c2cc(C(F)(F)F)ccc2OCC(C)(C)O)n1CC1CCC1 | water | – | – | – | solubility | 250 µg/mL (≈ 519 µM)
CC(C)(N)CNC(=O)Oc1cccc([C@H]2CCC[C@@]3(C2)OOC2(O3)C3CC4CC(C3)CC2C4)c1 (stereo partly drawn) | PBS | – | pH 7.4 | – | kinetic solubility | 103 µM (≈ 48.5 µg/mL)
CC1COC2=C1C(=O)C(=O)c1c2ccc2c1C(OC(=O)CNC(=O)CN)CCC2(C)C (mixture of isomers) | PBS | – | pH 5.5 | 25 °C | thermodynamic solubility | 360 µg/mL
CC[C@H](C)[C@H](NC(=O)[C@H](C)NC(=O)CNC(=O)[C@H](Cc1ccccc1)NC(=O)[C@H](CC(N)=O)NC(=O)[C@H](CC(N)=O)NC(=O)[C@H](CO)NC(=O)[C@H](CO)NC(=O)[C@H](Cc1c[nH]cn1)NC(=O)[C@@H](NC(=O)[C@H](CC(C)C)NC(=O)[C@H](Cc1ccccc1)NC(=O)[C@H](CC(N)=O)NC(=O)[C@H](C)NC(=O)[C@H](CC(C)C)NC(=O)[C@H](CCCNC(=N)N)NC(=O)[C@H](CCC(N)=O)NC(=O)[C@@H](NC(=O)[C@H](C)NC(=O)[C@@H]1CSSC[C@H](NC(=O)[C@@H](N)CCCCN)C(=O)N[C@@H](CC(N)=O)C(=O)N[C@@H]([C@@H](C)O)C(=O)N[C@@H](C)C(=O)N[C@@H]([C@@H](C)O)C(=O)N1)[C@@H](C)O[C@H]1O[C@H](CO)[C@H](O)[C@H](O[C@@H]2O[C@H](CO)[C@H](O)[C@H](O)[C@H]2O)[C@H]1NC(C)=O)C(C)C)C(=O)N[C@@H](CC(C)C)C(=O)N[C@@H](CO)C(=O)N[C@@H](CO)C(=O)N[C@H](C(=O)N[C@@H](CC(N)=O)C(=O)N[C@H](C(=O)NCC(=O)N[C@@H](CO)C(=O)N[C@@H](CC(N)=O)C(=O)N[C@H](C(=O)N[C@@H](Cc1ccc(O)cc1)C(N)=O)[C@@H](C)O)C(C)C)[C@@H](C)O | PBS | 1 h | pH 7.4 | – | thermodynamic solubility | 35 µg/mL (≈ 8.2 µM)
CC1COC2=C1C(=O)C(=O)c1c2ccc2c1C(OC(=O)CNC(=O)C(N)CCC(=O)O)CCC2(C)C (mixture of isomers) | PBS | – | pH 5.5 | 25 °C | thermodynamic solubility | 1870 µg/mL
CC[C@H](C)[C@H](NC(=O)[C@H](C)NC(=O)CNC(=O)[C@H](Cc1ccccc1)NC(=O)[C@H](CC(N)=O)NC(=O)[C@H](CC(N)=O)NC(=O)[C@H](CO)NC(=O)[C@H](CO)NC(=O)[C@H](Cc1c[nH]cn1)NC(=O)[C@@H](NC(=O)[C@H](CC(C)C)NC(=O)[C@H](Cc1ccccc1)NC(=O)[C@H](CC(N)=O)NC(=O)[C@H](C)NC(=O)[C@H](CC(C)C)NC(=O)[C@H](CCCNC(=N)N)NC(=O)[C@H](CCC(N)=O)NC(=O)[C@@H](NC(=O)[C@H](C)NC(=O)[C@@H]1CSSC[C@H](NC(=O)[C@@H](N)CCCCN)C(=O)N[C@@H](CC(N)=O)C(=O)N[C@@H]([C@@H](C)O)C(=O)N[C@@H](C)C(=O)N[C@@H]([C@@H](C)O)C(=O)N1)[C@@H](C)O[C@H]1O[C@H](CO[C@]2(C(=O)O)C[C@H](O)[C@@H](NC(C)=O)[C@H]([C@H](O)[C@H](O)CO)O2)[C@H](O)[C@H](O[C@@H]2O[C@H](CO)[C@H](O)[C@H](O[C@]3(C(=O)O)C[C@H](O)[C@@H](NC(C)=O)[C@H]([C@H](O)[C@H](O)CO)O3)[C@H]2O)[C@H]1NC(C)=O)C(C)C)C(=O)N[C@@H](CC(C)C)C(=O)N[C@@H](CO)C(=O)N[C@@H](CO)C(=O)N[C@H](C(=O)N[C@@H](CC(N)=O)C(=O)N[C@H](C(=O)NCC(=O)N[C@@H](CO)C(=O)N[C@@H](CC(N)=O)C(=O)N[C@H](C(=O)N[C@@H](Cc1ccc(O)cc1)C(N)=O)[C@@H](C)O)C(C)C)[C@@H](C)O | PBS | 1 h | pH 7.4 | – | thermodynamic solubility | 624 µg/mL (≈ 129 µM)
O=C(c1cc(Cc2n[nH]c(=O)c3ccccc23)ccc1F)N1CC(CNC2CC2)C1 | water | – | – | – | solubility | 62700 µg/mL (≈ 154000 µM)
CC1COC2=C1C(=O)C(=O)c1c2ccc2c1C(OC(=O)CNC(=O)C(N)CO)CCC2(C)C (mixture of isomers) | PBS | – | pH 4 | 25 °C | thermodynamic solubility | 785 µg/mL
CC[C@H](C)[C@H](NC(=O)[C@H](C)NC(=O)CNC(=O)[C@H](Cc1ccccc1)NC(=O)[C@H](CC(N)=O)NC(=O)[C@H](CC(N)=O)NC(=O)[C@H](CO)NC(=O)[C@H](CO)NC(=O)[C@H](Cc1c[nH]cn1)NC(=O)[C@@H](NC(=O)[C@H](CC(C)C)NC(=O)[C@H](Cc1ccccc1)NC(=O)[C@H](CC(N)=O)NC(=O)[C@H](C)NC(=O)[C@H](CC(C)C)NC(=O)[C@H](CCCNC(=N)N)NC(=O)[C@H](CCC(N)=O)NC(=O)[C@@H](NC(=O)[C@H](C)NC(=O)[C@@H]1CSSC[C@H](NC(=O)[C@@H](N)CCCCN)C(=O)N[C@@H](CC(N)=O)C(=O)N[C@@H]([C@@H](C)O)C(=O)N[C@@H](C)C(=O)N[C@@H]([C@@H](C)O)C(=O)N1)[C@@H](C)O)C(C)C)C(=O)N[C@@H](CC(C)C)C(=O)N[C@@H](CO)C(=O)N[C@@H](CO)C(=O)N[C@H](C(=O)N[C@@H](CC(N)=O)C(=O)N[C@H](C(=O)NCC(=O)N[C@@H](CO)C(=O)N[C@@H](CC(N)=O)C(=O)N[C@H](C(=O)N[C@@H](Cc1ccc(O)cc1)C(N)=O)[C@@H](C)O)C(C)C)[C@@H](C)O[C@H]1O[C@H](CO[C@]2(C(=O)O)C[C@H](O)[C@@H](NC(C)=O)[C@H]([C@H](O)[C@H](O)CO)O2)[C@H](O)[C@H](O[C@@H]2O[C@H](CO)[C@H](O)[C@H](O)[C@H]2O)[C@H]1NC(C)=O | PBS | 1 h | pH 7.4 | – | thermodynamic solubility | 3660 µg/mL (≈ 803 µM)

A few entries again:
SMILES | medium | time | pH | temperature | quantity | value
Cn1c(C(C)(C)C)c/c(=N\C(=O)c2cc(C(F)(F)F)ccc2OCC(C)(C)O)n1CC1CCC1 | water | – | – | – | solubility | 250 µg/mL (≈ 519 µM)
